Published values from different studies.
Target: Histone deacetylase 1 (HDAC1, Homo sapiens, UniProt Q13547)
Sequence of UniProt Q13547 (whole entry, looked up): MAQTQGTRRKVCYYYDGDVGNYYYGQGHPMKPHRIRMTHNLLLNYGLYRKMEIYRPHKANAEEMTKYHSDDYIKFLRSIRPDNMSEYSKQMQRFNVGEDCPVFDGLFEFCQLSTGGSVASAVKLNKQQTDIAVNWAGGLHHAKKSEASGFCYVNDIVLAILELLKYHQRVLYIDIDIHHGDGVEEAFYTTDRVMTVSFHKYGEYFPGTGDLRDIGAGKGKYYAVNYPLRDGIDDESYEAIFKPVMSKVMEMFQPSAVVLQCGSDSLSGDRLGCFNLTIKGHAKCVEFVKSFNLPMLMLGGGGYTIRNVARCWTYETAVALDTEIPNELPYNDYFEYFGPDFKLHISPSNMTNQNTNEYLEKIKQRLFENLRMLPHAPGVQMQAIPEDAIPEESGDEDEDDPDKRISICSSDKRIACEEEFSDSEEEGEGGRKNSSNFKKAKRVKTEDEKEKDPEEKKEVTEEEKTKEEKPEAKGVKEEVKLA

| Structure (SMILES) | observed | mode | technique | tested at | baseline | endpoint | result |
| --- | --- | --- | --- | --- | --- | --- | --- |
| CC(C)(C)c1ccccc1OS(=O)(=O)Oc1cccc(C(=O)NO)c1 | enzyme activity | inhibitor | fluorescence | 10 µM |  | inhibition | 18% |
| C[S@@](=N)(=O)c1ccc(C(=O)Nc2cc(-c3ccc(F)cc3)ccc2N)cc1 |  |  | NanoBRET target engagement |  | HDAC3 over HDAC1 | selectivity ratio | 10 fold |
| Cc1c(COc2cc(OCc3cccc(C#N)c3)c(CN3CCCC[C@H]3C(=O)O)cc2Cl)cccc1-c1cccc(OCc2ccc(C(=O)NO)cc2)c1 | enzyme activity | inhibitor |  | 1 µM |  | inhibition | 40.3% |
| Cc1cc(C(C)(C)C)ccc1OS(=O)(=O)Oc1cncc(C(=O)NO)c1 | enzyme activity | inhibitor | fluorescence | 10 µM |  | inhibition | 41% |
| COC(=O)c1ccc2c(c1)nc(NC(=O)c1ccccc1)n2CCCc1ccccc1 | enzyme activity | inhibitor |  | 10 µM |  | remaining activity | 86% |
| Cc1c(COc2cc(OCc3cccc(C#N)c3)c(CNCCO)cc2Cl)cccc1-c1cccc(OCCCCCCC(=O)NO)c1 | enzyme activity | inhibitor |  | 1 µM |  | inhibition | 83.9% |
| CCCCCCN(O)C(=O)CCCCC[C@@H]1NC(=O)[C@H](CCSC)NC(=O)CCSCc2cccc(n2)CSCCNC(=O)[C@H](Cc2ccc(Cl)cc2Cl)NC1=O | enzyme activity | inhibitor | fluorogenic | 30 µM |  | inhibition | 30% |
| O=C(NO)c1cc(F)cc(OS(=O)(=O)Oc2ccccc2-c2ccccc2)c1 | enzyme activity | inhibitor | fluorescence | 10 µM |  | inhibition | 11% |
| CC(=O)NCCNCc1cc(Cl)c(OCc2cccc(-c3cccc(OCCCCCCC(=O)NO)c3)c2C)cc1OCc1cccc(C#N)c1 | enzyme activity | inhibitor |  | 1 µM |  | inhibition | 69.4% |
| CCCCCCN(O)C(=O)CCCCC[C@@H]1NC(=O)[C@H]([C@@H](C)CC)NC(=O)[C@H](Cc2ccccc2C(F)(F)F)NC(=O)CCSCc2cccc(n2)CSCCCNC1=O | enzyme activity | inhibitor | fluorogenic | 30 µM |  | inhibition | 55% |
| Cc1c(COc2cc(OCc3cccc(C#N)c3)c(CNC(C)(CO)CO)cc2Cl)cccc1-c1cccc(OCCCCCCC(=O)NO)c1 | enzyme activity | inhibitor |  | 1 µM |  | inhibition | 78.6% |
| C=CC[C@@H]1NC(=O)CCSCc2ccc(cc2)CSCCCNC(=O)[C@H](CCCCCC(=O)N(O)CCCCCC)NC1=O | enzyme activity | inhibitor | fluorogenic | 30 µM |  | inhibition | 60% |
| O=C(NO)c1cccc(OS(=O)(=O)Oc2ccccc2)c1 | enzyme activity | inhibitor | fluorescence | 10 µM |  | inhibition | 52% |

Excerpt of the above:
| Structure (SMILES) | observed | mode | technique | tested at | baseline | endpoint | result |
| --- | --- | --- | --- | --- | --- | --- | --- |
| CC(=O)NCCNCc1cc(Cl)c(OCc2cccc(-c3cccc(OCCCCCCC(=O)NO)c3)c2C)cc1OCc1cccc(C#N)c1 | enzyme activity | inhibitor |  | 1 µM |  | inhibition | 69.4% |
